# Results pooled from the literature.
# Protocols differ between the studies behind these lines. Numbers after ± are the reported error.
SMILES,tested on,assay,system,setting,how to read,measurement,result
CCc1noc(CC)c1C(=O)O[C@H]1C(C)=C[C@]23C(=O)[C@@H](C=C(CO)[C@@H](O)[C@]12O)[C@H]1[C@@H](C[C@H]3C)C1(C)C,,,phosphate buffer,"24 h, pH 7.4, 37 °C",,20-isomer formed,25%
NC(=S)N/N=C/c1cc(Cl)ccc1O,,cyclic voltammetry,DMF,Cu2+ complex,,peak current ratio ipa/ipc,0.15
N=C(N)NCCC[C@@H]1NC(=O)[C@H](Cc2c[nH]c3ccccc23)NC(=O)[C@@H](CC2CCCCC2)NC(=O)[C@@H]2CCCN2C(=O)[C@@H](NC(=O)CCc2ccccc2)CCCNC1=O,,,"C57BL/6J mouse, spinal cord","subcutaneous, 1 mg/kg, single dose, two-compartment model",,beta elimination rate constant,0.32 h⁻¹
O=C(CCc1ccc(CNC(C(=O)OC2CCCC2)C2CCCCC2)cn1)NO (stereo not shown),,,human,"oral, 40 mg, single dose, geometric mean",,Vz/F,158 L
CC(C)CCCC(C)CCCC(C)CCOC1O[C@H](CO)[C@@H](O)[C@H](O)[C@H]1O (stereo partly shown),,filtration and HPLC-MS,water,room temperature,,aqueous solubility,13.1 ppm
C=CC(=O)Nc1cc(Nc2nccc(-c3cn(C)c4ccccc34)n2)c(OCC(F)(F)F)nc1N(C)CCNC,,LC-MS,human liver microsomes,"3 µM, 60 min, together with: quercetin 20 µM",baseline: no inhibitor,remaining parent compound,32%
COc1ccc2cc(-c3ccc(-c4ccc(C)cn4)nc3)oc2c1,,TCSPC,EtOH,,,radiative decay rate constant,0.41 ns⁻¹
COCCOCCOCCOCCOCCOCCOCCOCCC(=O)NCCCc1cc2cc3nc(cc4[nH]c(cc5nc(c(OC)c1[nH]2)C(=O)C5(C)C)cc4CCc1ccc(C(=O)O)cc1)CC3(C)C,,,DMF,room temperature,,integrated Qy/B absorption ratio,0.23
CCCC(CCC)NC(=O)c1ccc(OC2OC(C(=O)O)C(O)C(O)C2O)c(O)c1 (stereo not shown),,,"female Sprague-Dawley rat, plasma","oral, 200 mg/kg of parent drug",,Tmax,8.3 h
CC(C)c1cnc(-c2cc(Cl)ccc2F)cc1Nc1ccncc1C(=O)NC(CO)CO,,"monotherapy, measured: fatigue",human patients,"oral, dose not given, grade 5, phase I A",,patients with treatment-related adverse event,0%
C[C@]12C[C@H](c3ccc(S(C)(=O)=O)cc3)C3=C4CCC(=O)C=C4CC[C@H]3[C@@H]1CC[C@@]2(O)C(F)(F)C(F)(F)F,,,rabbit,"oral, 1 mg/kg, 0 to 24 h, efficacious exposure, steady state",,AUC(ss),126 ng·h/mL
CC(C)(Sc1cc[n+]([O-])cc1-c1ccc(C#N)c2ccccc12)C(=O)OC1OC(C(=O)O)C(O)C(O)C1O (stereo not shown),,,"adult men, plasma","oral, 15 mg verinurad, mild renal impairment",baseline: normal renal function,AUC(0-inf) increase,36%
[2H]C([2H])([2H])NC(=O)c1ccc(N2C(=S)N(c3ccc(C#N)c(C(F)(F)F)c3)C(=O)C2(C)C)cc1F,,,"human, plasma","oral, 160 mg, single dose, fasted",,CL/F,215 mL/h
COc1ccc(S(=O)(=O)N2CCc3ccccc3C2)cc1N1CCN(C(=O)c2ccc(F)cc2C(F)(F)F)CC1,,,"rat, plasma","intravenous, 10 mg/kg, 1 h, single dose",,concentration,449 ng/mL
CN(C)c1cc(CN2CCCCC2)c(O)c2c1C[C@H]1C[C@H]3[C@H](N(C)C)C(O)=C(C(N)=O)C(=O)[C@@]3(O)C(O)=C1C2=O,,,"cynomolgus monkey, plasma","oral, 5 mg/kg",,t1/2,4.7 h
Oc1ccc2ccccc2c1/N=N/c1ccccc1,,,rat whole blood QC samples,"16.0 µg/L, 12 h, room temperature, short-term stability",,measured concentration,16.2 µg/L
CC[C@H](C)[C@H](NC(=O)[C@H](Cc1ccccc1)NC(=O)[C@H](CC(=O)O)NC(=O)[C@H](CCCNC(=N)N)NC(=O)[C@H](Cc1ccccc1)NC(=O)[C@H](Cc1ccccc1)NC(=O)[C@H](CCN)NC(=O)[C@H](CO)NC(=O)[C@H](CC(C)C)NC(=O)[C@H](CCCNC(=N)N)NC(=O)[C@H](CCSC)NC(=O)[C@H](C)N)C(=O)N[C@@H](CCCCN)C(=O)N[C@@H](CCC(N)=O)C(=O)N[C@@H](CCCNC(=N)N)C(=O)N[C@@H](CCCCN)C(=O)N[C@@H](CCCCN)C(=O)O,,circular dichroism,20% TFE in PBS,"200 µM, pH 7.4, 25 °C",,helicity,16.2%
C[C@H]1NSc2nc(=O)c3[nH]ccc3n2Cc2ccc(Cl)cc21,,,"dog, both sexes, plasma",100 mg/kg,baseline: dog over human 5 mg,exposure ratio,not detected
[64Cu+2].c1cnc(CNCc2ccc(CN3CCCN4CCNCCCN(CC4)CC3)cc2)nc1,CXCR4,,"NOD/SCID mouse, U87 and U87-stb-CXCR4 xenografts, blood","iv, 240 min, ex vivo",,tissue uptake,1.14 ± 0.29 %ID/g
Cc1ccc(O)c2c3c(nn12)CCC(C)(NC(=O)c1ccc(-n2cnc4cc(C(=O)O)ccc42)cc1Cl)C3 (stereo not shown),,,rat,dose not given,,volume of distribution,0.19 L/kg
CN1CCC[C@]1(C)/C=C/S(=O)(=O)NC(=O)Nc1c2c(cc3c1CCC3)CCC2,,,"human, plasma","oral, 100 mg twice daily, day 14, multiple ascending dose",,Cmax after first dose,16400 ng/mL
CC12CC(c3ccc(S(C)(=O)=O)cc3)C3=C4CCC(=O)C=C4CCC3C1CCC2(O)C(F)(F)C(F)(F)F (stereo not shown),,,"human, plasma","intravenous infusion, 15.7 µg [14C]-labelled, 30 min infusion, microdose 1.5 to 2 h after oral 4 mg",,"AUC(0-24h), geometric mean",0.98 ng·h/mL
O=S(=O)(c1ccccc1)N1CCCCC1,,HPLC,,pH 7.5,,chromatographic logD,2.6
NC(=O)CCCn1c2ccc([N+](=O)[O-])cc2c(=O)n1Cc1ccccc1,,resazurin,"peritoneal macrophages, BALB/c mice","48 h, 10% FBS",,CC50,8.3 ± 3.6 µM
CC[C@H](C)[C@H](NC(=O)[C@H](Cc1ccccc1)NC(=O)[C@H](CCCCN)NC(=O)[C@H](CCCNC(=N)N)NC(=O)[C@H](Cc1ccccc1)NC(=O)[C@H](Cc1ccccc1)NC(=O)[C@H](CCCCN)NC(=O)[C@H](CO)NC(=O)[C@H](CC(C)C)NC(=O)[C@H](CCCNC(=N)N)NC(=O)[C@H](CCSC)NC(=O)[C@H](C)N)C(=O)N[C@@H](CC(C)C)C(=O)N[C@@H](CN)C(=O)N[C@@H](CCCNC(=N)N)C(=O)N[C@@H](CCCCN)C(=O)N[C@@H](CCCCN)C(=O)O,,circular dichroism,20% TFE in PBS,"200 µM, pH 7.4, 25 °C",,helicity,16.4%
CCC(=O)N(C)c1ccc(Cl)c(Cl)c1,CHO-WBL,,,"0.032 mg/mL, 3 h, without S9 activation",,cells with one aberration,0%
[64Cu+2].c1ccc(CNCc2ccc(CN3CCCN4CCNCCCN(CC4)CC3)cc2)nc1,CXCR4,,"NOD/SCID mouse, U87 and U87-stb-CXCR4 xenografts, heart","iv, 30 min, ex vivo",,tissue uptake,2.46 ± 0.52 %ID/g
CC(=O)N[C@H](C(=O)N[C@H](C(=O)N[C@@H](CCCNC(=N)N)C(=O)N1Cc2ccccc2C[C@H]1C(=O)N[C@@H](Cc1ccccc1)C(N)=O)C1CCCCC1)C(C)C,human PBMC,"Bio-Plex multiplex, measured: MCP-1(MCAF)",,"500 µg/mL, 24 h",,cytokine level,4790 ± 4890 pg/mL
Clc1ccc(NCc2cn(-c3ccccc3)nc2-c2ccc(OCc3ccccc3)cc2)cc1,,,"rat, gastric mucosa","oral, 60 mg/kg, 17 h",baseline: control score subtracted,ulcer severity index,1.07 ± 0.27
CN(Cc1ccc(F)cc1)Cc1cc(=O)oc2cc(O)ccc12,,,HepG2 cell medium,"0.5 mM, 120 min",,remaining intact compound,> 99%
COc1cc(NC(C)=O)c2c(c1O)-c1c(OC)c(OC)cc3c1C(C2)N(C)CC3 (stereo not shown),,,rat liver homogenate,"0.5 µg/mL, 24 h, room temperature, post-preparative storage",,remaining compound,111 ± 4.2%
Cn1c(=O)oc2ccc(-c3ccc(CC(C#N)NC(=O)C4CNCCCO4)c(F)c3)cc21 (stereo not shown),,measured: skin exfoliation,human volunteers,"oral, dose not given",,treatment-related adverse event incidence,3.3%
COc1cc2c(cc1OC)CN(CCCCn1ccc3cc(OCC[18F])ccc31)C2,,,"male CD-1 mouse, spleen","intravenous, 2 min",,tracer uptake,6.18 %ID/g
CC(=O)N[C@H](CCNC(=O)c1cc(NC(=O)c2cc(NC(=O)c3cc(NC(=O)c4nccn4C)cn3C)cn2C)cn1C)C(=O)Nc1cn(C)c(C(=O)Nc2cc(C(=O)Nc3cc(C(=O)Nc4cc(C(=O)NCCCN(C)CCCN[14C](=O)c5cccc([14C](=O)O)c5)n(C)c4)n(C)c3)n(C)c2)n1,,,"NSG male mice, A549 and LNCaP double xenograft, A549 tumour","intraperitoneal, 20 nmol per animal, 24 h",,tissue concentration,0.23 mg/kg
NC1=N[C@@]2(c3ccc(F)cc3F)CO[C@@H](c3cn[nH]c3)C[C@H]2CS1,,metabolic stability,"human, liver microsomes",,,scaled CLint,< 8 mL/min/kg
CC[C@H](C)[C@H](NC(=O)[C@@H](NC(=O)[C@H](CS)NC(=O)[C@H](C)NC(=O)[C@H](CC(N)=O)NC(=O)[C@H](CCCNC(=N)N)NC(=O)[C@H](CCCNC(=N)N)NC(=O)[C@H](CC(N)=O)NC(=O)[C@H](CCCNC(=N)N)NC(=O)[C@H](CCCNC(=N)N)NC(=O)[C@H](C)NC(=O)[C@H](CS)NC(=O)[C@H](CC(C)C)NC(=O)[C@@H](NC(=O)[C@@H](NC(=O)[C@H](CS)NC(=O)[C@H](CCCCN)NC(=O)[C@@H](N)CCCNC(=N)N)C(C)C)[C@@H](C)CC)C(C)C)C(=O)N[C@@H](CC(C)C)C(=O)N[C@@H](CS)C(=O)N[C@@H](CCCNC(=N)N)C(=O)O,,LC/MS,PBS,0.1 mg/mL,baseline: LC peak area,two-disulfide form,33%
CCC(C)n1c(C(=O)Nc2cnc(C(=O)NC)n(CC(C)C)c2=O)ncc(NC(=O)c2ncc(NC(=O)c3ccccc3)c(=O)n2Cc2ccc(OC)cc2)c1=O (stereo not shown),,,human liver microsomes,"2 µM, 40 min, pH 7.4, 37 °C",,parent compound remaining,91%
COc1ccc(Nc2nc(Nc3ccc(OCCOCC[18F])cc3)ncc2Br)cc1,,,"ICR mice, S180 tumour","intravenous, 370 kBq, 30 min",baseline: tumour over blood,uptake ratio,1.94
CCCC[C@H](NC(=O)CNC(=O)CNC(=O)CN1CCN(CC(=O)O)CCN(CC(=O)O)CCN(CC(=O)O)CC1)C(=O)N[C@H]1CC(=O)NCCCC[C@@H](C(N)=O)NC(=O)[C@H](Cc2c[nH]c3ccccc23)NC(=O)[C@H](CCCNC(=N)N)NC(=O)[C@@H](Cc2ccccc2)NC(=O)[C@H](Cc2c[nH]cn2)NC1=O [gallium-67 labelled],,,"C57 mice, B16/F1 melanoma",24 h,,tumour to skin uptake ratio,9.95
CC(=O)N[C@H](CC(=O)O)C(=O)N[C@H](Cc1c[nH]c2ccccc12)C(=O)N[C@H](Cc1ccccc1)C(=O)N[C@H](CCCCN)C(=O)N[C@H](C)C(=O)N[C@H](Cc1ccccc1)C(=O)N[C@H](Cc1ccc(O)cc1)C(=O)N[C@H](CC(=O)O)C(=O)N[C@H](CCCCN)C(=O)N[C@@H](C(=O)N[C@H](C)C(=O)N[C@H](CCC(=O)O)C(=O)N[C@H](CCCCN)C(=O)N[C@H](Cc1ccccc1)C(=O)N[C@H](CCCCN)C(=O)N[C@H](CCC(=O)O)C(=O)N[C@H](C)C(=O)N[C@H](Cc1ccccc1)C(N)=O)C(C)C,,,"statin-treated high-risk CHD men, plasma","oral, 100 mg daily, day 1, 0 to 2 h, mean, undetectable set to 0",,AUC(0-t),2.82 ng·h/mL
CN1C(=O)[C@@H](Cc2ccc(O)cc2)NC(=O)CNC(=O)[C@H](Cc2ccc3ccccc3c2)NC(=O)[C@H](CCCNC(=N)N)NC(=O)[C@H]1CCCNC(=O)c1ccc(CNC(=O)CN2CCN(CC(=O)O)CCN(CC(=O)O)CCN(CC(=O)O)CC2)cc1 [gallium-68 labelled],,extrapolated to adult male,"C57BL/6 mice, small intestine",,,absorbed dose coefficient,0.0128 mGy/MBq
CC1=C(/C=C/C(=O)N2CCN(C(N)=O)CC2)C(C)(C)CCC1,,,"male mice, plasma","oral, 40 mg/kg",,Cmax,19.6 nmol/g
O=C(CCC(C(=O)[O-])N1CCN(C(CCC(=O)NCC(O)CO)C(=O)[O-])Cc2cccc(n2)CN(C(CCC(=O)NCC(O)CO)C(=O)[O-])CC1)NCC(O)CO.[153Gd+3] (stereo not shown),,,"Beagle dog, feces","intravenous, 0.2 mmol Gd/kg, 168 h",baseline: dose,excreted radioactivity,5.7%
